Measurements collected from several papers.
Lines come from different studies, so protocols differ. “And” joins repeats or separate records; there may be more than shown. ± marks the error that the study gave.
Luciferin 4-monooxygenase: Luciferin 4-monooxygenase (Photinus pyralis, UniProt P08659)
DRD1: D(1A) dopamine receptor (DRD1, Homo sapiens, UniProt P21728)

| SMILES | target | assay | system | conditions | scale | inhibition |
| --- | --- | --- | --- | --- | --- | --- |
| CCCN(O)N=Nc1ccc(S(=O)(=O)Nc2nccs2)cc1 | α-glucosidase, rat intestine | enzyme activity |  | 180 µg/mL, with: 4-nitrophenyl α-D-glucopyranoside |  | 40 ± 0.041% |
| CC[C@@H]1[C@H](F)C(=O)N[C@@H]1COc1nccc2cc(C(N)=O)c(OC)cc12 | MLKL (Homo sapiens, UniProt Q8NB16) | ATP-site probe binding, ActivX profiling | THP-1 cell lysate | 0.01 mM, Lys1 site |  | -3.7% |
| O=C(O)/C=C/C=C/c1ccccc1 | Luciferin 4-monooxygenase | luciferase luminescence, inhibitor | cell-free | 50 µM, counter-screen |  | 20.1% |
| CCN(O)N=Nc1ccc(S(=O)(=O)Nc2onc(C)c2C)cc1 | α-glucosidase, rat intestine | enzyme activity |  | 120 µg/mL, with: 4-nitrophenyl α-D-glucopyranoside |  | 26.2 ± 0.09% |
| CCc1oc2ccccc2c1C(=O)c1cc(Br)c(O)c(Br)c1 | SLC22A12 (Homo sapiens, UniProt Q96S37, S35A) | urate uptake | HEK293T | 0.5 µM, 10 min, 37 °C, with: 200 µM [14C]urate |  | 64.6% and 61.9% and 71.4% and 69.6% |
| Cc1ccc(S(=O)(=O)Nc2ccc(C)cc2NS(=O)(=O)c2cccc(C(F)(F)F)c2)cc1 | Protein lin-28 homolog A (Mus musculus, UniProt Q8K3Y3) | RNA binding, inhibitor, EMSA |  | concentration not given |  | inhibited |
| CC(=O)N[C@H]1C(O)O[C@H](CO)[C@H](O)[C@@H]1O (mixture of isomers) | Adhesin FmlH, lectin domain (Escherichia coli, UniProt Q1RBS0) | binding to desialylated mucin, ELISA competition | UPEC UTI89 | 100 µM |  | 28.5 ± 5.2% |
| Cc1ccc(C(=O)Nc2ccc3ccccc3c2)o1 | ATP-sensitive inward rectifier potassium channel 10 (Homo sapiens, UniProt P78508) | ion current, whole-cell patch-clamp |  | 10 µM |  | 1.58% |
| CCCC1=NN(c2nc3ccccc3s2)C(=O)/C1=C(\C)Nc1ccccc1CC | Luciferin 4-monooxygenase | luciferase luminescence, inhibitor | cell-free | 50 µM, counter-screen |  | 6.99% |
| O=C(NO)c1ccc(CN2CCCCc3ccccc32)c(F)c1 | DRD1 | radioligand binding, radioligand displacement |  | 10 µM |  | 22.6% |
| CN1CCN(c2cc(-c3ccncc3)c(-c3ccc4ccccc4c3)nn2)CC1 | PTAFR (Homo sapiens, UniProt P25105) | antagonist, FLIPR |  | 10 µM |  | -0.5% |
| Clc1cccc(OC[C@@H]2CN(CCN3CCc4ccccc43)CCO2)c1 | DRD1 | radioligand binding |  | concentration not given, with: [3H]SCH23390 |  | 72.5% |
| Cc1cc(NS(=O)(=O)c2ccc(N=NN(O)c3ccccc3)cc2)no1 | α-glucosidase, rat intestine | enzyme activity |  | 120 µg/mL, with: 4-nitrophenyl α-D-glucopyranoside |  | 32.5 ± 1.43% |
| CCCc1nn(C)c2c(=O)[nH]c(-c3cc(S(=O)(=O)N4CCN(C)CC4)ccc3OCC)nc12 | Palmitoyl-protein thioesterase 1 (Homo sapiens, UniProt P50897) | Spectrum Collection screen |  | concentration not given, with: substrate 20 µM |  | 61.2% |
| CCCN(O)N=Nc1ccc(S(=O)(=O)Nc2cc(C)on2)cc1 | α-glucosidase, rat intestine | enzyme activity |  | 20 µg/mL, with: 4-nitrophenyl α-D-glucopyranoside |  | 12.5 ± 1.05% |
| O=C(NCC1CCCO1)c1cc(N2CCCC2)n2nccc2n1 (centres unmarked) | Luciferin 4-monooxygenase | luciferase luminescence, inhibitor | cell-free | 50 µM, counter-screen |  | 4.78% |
| CCN(O)N=Nc1ccc(S(=O)(=O)Nc2cc(C)on2)cc1 | α-glucosidase, rat intestine | enzyme activity |  | 180 µg/mL, with: 4-nitrophenyl α-D-glucopyranoside |  | 60 ± 0.041% |
| OCCCN1CC[C@@H]2C[C@H]1c1cc(-c3ccc(C(F)(F)F)cc3)ccc12 | OPRD1 (Homo sapiens, UniProt P41143) | radioligand binding, PDSP competition binding |  | 10 µM |  | < 50% |
| Cn1cncc1[C@@](N)(c1ccc(Cl)cc1)c1ccc2c(c1)c(-c1cccc(Cl)c1)cc(=O)n2C | Protein farnesyltransferase (Homo sapiens, UniProt P49354+P49356) | enzyme activity, inhibitor, scintillation proximity | leukaemia patients, leukaemic blasts | 300 mg/m^2, 10 days, median | reference: pretreatment | 87% |
| O=C1c2ccccc2CCCN1CCCCN1CCN(c2ccccn2)CC1 | HTR1E (Homo sapiens, UniProt P28566) | radioligand binding |  | concentration not given, with: [3H]5-HT |  | -8.6% |

Repeated from above:
| SMILES | target | assay | system | conditions | scale | inhibition |
| --- | --- | --- | --- | --- | --- | --- |
| CCN(O)N=Nc1ccc(S(=O)(=O)Nc2cc(C)on2)cc1 | α-glucosidase, rat intestine | enzyme activity |  | 180 µg/mL, with: 4-nitrophenyl α-D-glucopyranoside |  | 60 ± 0.041% |
